Measurements pooled from the literature.
A part holds a random share of what one study measured. “And” joins repeats or separate records; there may be more than shown.
UniProt Q16816, sequence (whole entry, looked up): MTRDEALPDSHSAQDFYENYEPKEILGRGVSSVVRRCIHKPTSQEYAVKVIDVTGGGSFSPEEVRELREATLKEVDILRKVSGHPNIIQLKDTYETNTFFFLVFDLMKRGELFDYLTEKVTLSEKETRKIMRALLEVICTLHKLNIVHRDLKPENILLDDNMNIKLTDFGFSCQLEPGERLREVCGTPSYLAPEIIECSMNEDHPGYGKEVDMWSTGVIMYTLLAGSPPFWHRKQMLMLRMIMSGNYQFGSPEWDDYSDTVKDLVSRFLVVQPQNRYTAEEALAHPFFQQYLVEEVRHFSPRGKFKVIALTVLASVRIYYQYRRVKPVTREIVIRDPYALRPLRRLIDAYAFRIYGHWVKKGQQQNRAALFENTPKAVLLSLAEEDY
UniProt Q6P2M8, sequence (whole entry, looked up): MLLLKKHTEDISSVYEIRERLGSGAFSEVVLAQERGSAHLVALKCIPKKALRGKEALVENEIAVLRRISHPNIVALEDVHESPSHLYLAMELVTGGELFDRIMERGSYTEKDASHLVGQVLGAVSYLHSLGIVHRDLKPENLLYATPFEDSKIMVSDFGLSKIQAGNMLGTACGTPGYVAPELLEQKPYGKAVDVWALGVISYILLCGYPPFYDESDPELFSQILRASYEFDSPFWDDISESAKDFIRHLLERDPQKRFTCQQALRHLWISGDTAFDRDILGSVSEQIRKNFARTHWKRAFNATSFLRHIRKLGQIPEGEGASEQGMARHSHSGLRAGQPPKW
UniProt Q9UL54, sequence (whole entry, looked up): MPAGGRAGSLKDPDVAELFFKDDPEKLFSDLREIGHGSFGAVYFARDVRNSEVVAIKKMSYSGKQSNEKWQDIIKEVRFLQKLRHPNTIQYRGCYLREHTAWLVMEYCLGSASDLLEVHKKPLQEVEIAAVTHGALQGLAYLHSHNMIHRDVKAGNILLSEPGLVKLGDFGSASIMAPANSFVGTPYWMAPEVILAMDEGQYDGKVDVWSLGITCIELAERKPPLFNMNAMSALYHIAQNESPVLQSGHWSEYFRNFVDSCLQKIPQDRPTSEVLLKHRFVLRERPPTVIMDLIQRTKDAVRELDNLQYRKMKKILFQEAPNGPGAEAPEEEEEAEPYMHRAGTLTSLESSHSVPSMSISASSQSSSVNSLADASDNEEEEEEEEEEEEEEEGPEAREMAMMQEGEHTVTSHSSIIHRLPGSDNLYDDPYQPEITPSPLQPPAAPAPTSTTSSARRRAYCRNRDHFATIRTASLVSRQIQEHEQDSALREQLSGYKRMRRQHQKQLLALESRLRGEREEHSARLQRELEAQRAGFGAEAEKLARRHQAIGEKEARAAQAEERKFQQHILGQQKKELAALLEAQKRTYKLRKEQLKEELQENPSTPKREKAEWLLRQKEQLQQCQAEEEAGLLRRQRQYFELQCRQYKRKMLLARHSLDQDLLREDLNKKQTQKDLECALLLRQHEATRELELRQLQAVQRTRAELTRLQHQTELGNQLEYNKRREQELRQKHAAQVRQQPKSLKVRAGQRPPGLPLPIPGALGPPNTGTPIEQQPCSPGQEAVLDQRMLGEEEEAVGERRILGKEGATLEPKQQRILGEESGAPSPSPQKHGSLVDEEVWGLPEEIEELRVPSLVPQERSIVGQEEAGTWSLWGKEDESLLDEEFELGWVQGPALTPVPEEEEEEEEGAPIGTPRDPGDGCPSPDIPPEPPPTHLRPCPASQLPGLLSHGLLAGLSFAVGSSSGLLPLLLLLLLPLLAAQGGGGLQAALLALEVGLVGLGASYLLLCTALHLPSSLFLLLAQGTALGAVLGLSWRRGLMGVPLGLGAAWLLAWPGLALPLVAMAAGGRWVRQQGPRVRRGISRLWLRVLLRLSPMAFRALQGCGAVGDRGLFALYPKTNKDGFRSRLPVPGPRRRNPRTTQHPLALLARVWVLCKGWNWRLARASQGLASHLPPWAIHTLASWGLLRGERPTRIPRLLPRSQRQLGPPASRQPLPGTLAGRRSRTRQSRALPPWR
UniProt P15735, sequence (whole entry, looked up): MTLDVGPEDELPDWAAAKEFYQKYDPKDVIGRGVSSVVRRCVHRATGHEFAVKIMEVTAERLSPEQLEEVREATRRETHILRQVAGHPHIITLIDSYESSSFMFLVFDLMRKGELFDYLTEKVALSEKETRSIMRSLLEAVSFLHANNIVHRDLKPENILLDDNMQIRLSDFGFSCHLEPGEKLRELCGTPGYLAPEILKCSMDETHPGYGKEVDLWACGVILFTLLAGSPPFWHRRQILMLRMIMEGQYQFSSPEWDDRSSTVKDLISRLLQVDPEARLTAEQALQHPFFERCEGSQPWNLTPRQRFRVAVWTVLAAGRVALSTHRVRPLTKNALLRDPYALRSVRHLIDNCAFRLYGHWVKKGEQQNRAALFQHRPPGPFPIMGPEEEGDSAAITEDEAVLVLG
UniProt Q86UX6, sequence (whole entry, looked up): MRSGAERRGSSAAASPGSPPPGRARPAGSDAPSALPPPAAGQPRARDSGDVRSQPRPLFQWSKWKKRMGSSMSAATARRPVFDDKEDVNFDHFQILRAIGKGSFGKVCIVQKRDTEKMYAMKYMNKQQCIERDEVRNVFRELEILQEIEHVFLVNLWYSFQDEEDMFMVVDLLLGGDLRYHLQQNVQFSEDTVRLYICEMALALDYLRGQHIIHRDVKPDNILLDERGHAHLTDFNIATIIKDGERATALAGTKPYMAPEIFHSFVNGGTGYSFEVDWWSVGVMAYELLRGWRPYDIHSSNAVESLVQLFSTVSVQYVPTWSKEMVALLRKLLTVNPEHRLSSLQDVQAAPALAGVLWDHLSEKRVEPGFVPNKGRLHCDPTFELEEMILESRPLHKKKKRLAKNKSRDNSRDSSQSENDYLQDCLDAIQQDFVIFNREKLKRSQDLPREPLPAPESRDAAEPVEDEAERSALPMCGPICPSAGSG

Sample 1 — organism: Arabidopsis thaliana; strain: Col-0; concentration: 100 µg/mL; setting: seed germination, single repetition
| Structure (SMILES) | hypocotyl length |
| --- | --- |
| CC(C)=CCN1C(=O)C(O)(C(=O)O)Oc2cc(F)ccc21 (stereo not shown) | 1.41 cm and 1.45 cm |
| Cc1ccc2c(c1)OC(O)(C(=O)O)C(=O)N2Cc1ccccc1 (stereo not shown) | 1.04 cm and 1.06 cm and 1.11 cm and 1.13 cm and 1.1 cm |
| O=C(O)C1(O)Oc2cc(Br)ccc2N(Cc2ccccc2)C1=O (stereo not shown) | 0.85 cm and 0.79 cm and 0.81 cm and 0.82 cm |
| CCCN1C(=O)C(O)(C(=O)O)Oc2cc(F)ccc21 (stereo not shown) | 0.71 cm and 0.75 cm and 0.77 cm and 0.74 cm |
| O=C(O)C1(O)Oc2cc(F)ccc2N(Cc2ccccc2)C1=O (stereo not shown) | 0.01 cm |

Sample 2 — concentration: 1 µM
SMILES: CC[C@@]1(c2cccc(-c3c(F)cncc3OC)c2)C2=C(Nc3n[nH]cc31)[C@H](F)C(C)(C)CC2=O (single isomer, unassigned)
| target | effect on | method | baseline | remaining binding [%] |
| --- | --- | --- | --- | --- |
| Phosphatidylinositol 5-phosphate 4-kinase type-2 gamma (PIP4K2C, Homo sapiens, UniProt Q8TBX8) | binding | competition with immobilised ligand | – | 100 |
| Phosphorylase b kinase gamma catalytic chain, skeletal muscle/heart isoform (PHKG1, Homo sapiens, UniProt Q16816) | binding | competition with immobilised ligand | – | 100 |
| Dual specificity protein kinase CLK3 (CLK3, Homo sapiens, UniProt P49761) | kinase binding | KINOMEscan | DMSO control | 73 |
| Mitogen-activated protein kinase kinase kinase kinase 4 (MAP4K4, Homo sapiens, UniProt O95819) | kinase binding | KINOMEscan | DMSO control | 62 |
| Phosphorylase b kinase gamma catalytic chain, liver/testis isoform (PHKG2, Homo sapiens, UniProt P15735) | binding | competition with immobilised ligand | – | 86 |
| Calcium/calmodulin-dependent protein kinase type 1B (PNCK, Homo sapiens, UniProt Q6P2M8) | kinase binding | KINOMEscan | DMSO control | 57 |
| Serine/threonine-protein kinase Nek4 (NEK4, Homo sapiens, UniProt P51957) | binding | competition with immobilised ligand | – | 62 |
| Serine/threonine-protein kinase 32C (STK32C, Homo sapiens, UniProt Q86UX6) | binding | competition with immobilised ligand | – | 97 |
| Ephrin type-A receptor 5 (EPHA5, Homo sapiens, UniProt P54756) | kinase binding | KINOMEscan | DMSO control | 70 |
| Serine/threonine-protein kinase TAO2 (TAOK2, Homo sapiens, UniProt Q9UL54) | binding | competition with immobilised ligand | – | 79 |
| Focal adhesion kinase 1 (PTK2, Homo sapiens, UniProt Q05397) | kinase binding | KINOMEscan | DMSO control | 86 |
| Casein kinase II subunit alpha' (CSNK2A2, Homo sapiens, UniProt P19784) | kinase binding | KINOMEscan | DMSO control | 79 |
| Serine/threonine-protein kinase 33 (STK33, Homo sapiens, UniProt Q9BYT3) | binding | competition with immobilised ligand | – | 100 |
| Epidermal growth factor receptor (EGFR, Homo sapiens, UniProt P00533, T790M) | binding | competition with immobilised ligand | – | 98 |
| Phosphatidylinositol 3-kinase catalytic subunit type 3 (PIK3C3, Homo sapiens, UniProt Q8NEB9) | kinase binding | KINOMEscan | DMSO control | 56 |
| Serine/threonine-protein kinase pim-3 (PIM3, Homo sapiens, UniProt Q86V86) | binding | competition with immobilised ligand | – | 100 |
| Casein kinase I isoform gamma-2 (CSNK1G2, Homo sapiens, UniProt P78368) | binding | competition with immobilised ligand | – | 94 |
| Leucine-rich repeat serine/threonine-protein kinase 2 (LRRK2, Homo sapiens, UniProt Q5S007) | kinase binding | KINOMEscan | DMSO control | 56 |

Sample 3 — cell line: MDA-MB-468; effect on: cell viability; method: CellCounting-Lite; concentration: 666.7 nM; temperature: 37 °C; direction: higher = more viable cells
| SMILES | luminescence signal |
| --- | --- |
| CCn1cnc2c(NCc3nc4cc(Cl)c(Cl)cc4[nH]3)nc(N3CCN(C(C)=O)CC3)nc21 | 39400 a.u. and 37400 a.u. and 36500 a.u. |
| CCn1cnc2c(NCc3nc4ccc(F)c(F)c4[nH]3)nc(N3CCn4ncnc4C3)nc21 | 29900 a.u. and 35800 a.u. and 28800 a.u. |
| CCn1cnc2c(NCc3nc4cc(Cl)c(Cl)cc4[nH]3)nc(N3CCN(C(=O)c4ccncc4)CC3)nc21 | 41800 a.u. and 31600 a.u. and 37600 a.u. |
| CCn1cnc2c(NCc3nc4cc(Cl)c(Cl)cc4[nH]3)nc(N3CCN(C(=O)c4ccccc4)CC3)nc21 | 39800 a.u. and 35400 a.u. and 34100 a.u. |
| CCn1cnc2c(NCc3nc4cc(Cl)c(Cl)cc4[nH]3)nc(N3CCN(Cc4ccncc4)CC3)nc21 | 31300 a.u. and 32500 a.u. and 41600 a.u. |
| CCn1cnc2c(NCc3nc4cc(F)c(F)cc4[nH]3)nc(N3CCn4ncnc4C3)nc21 | 32200 a.u. and 27700 a.u. and 34700 a.u. |
| CCn1cnc2c(NCc3nc4cc(Cl)c(Cl)cc4[nH]3)nc(N3CCN(C(=O)c4cccnc4)CC3)nc21 | 29900 a.u. and 33400 a.u. and 32700 a.u. |
| CCn1cnc2c(NCc3nc4cc(Cl)c(Cl)cc4[nH]3)nc(N3CCn4ncnc4C3)nc21 | 37100 a.u. and 37300 a.u. and 36300 a.u. |
| CCn1cnc2c(NCc3nc4cc(Cl)c(Cl)cc4[nH]3)nc(N3CCN(C(=O)c4ccccn4)CC3)nc21 | 37200 a.u. and 31300 a.u. and 43400 a.u. |
| CCn1cnc2c(NCc3nc4cc(Cl)c(Cl)cc4[nH]3)nc(N3CCN(C(=O)[C@H](C)NC(C)=O)CC3)nc21 | 54900 a.u. and 49600 a.u. and 40000 a.u. |

Sample 4
Structure (SMILES): Cc1ncsc1-c1ccc(C(CO)NC(=O)C2CC(O)CN2C(=O)C(C(C)C)n2cc(-c3ccc(COc4c(-c5c(C)c(F)cc6[nH]ncc56)c(C5CC5)cc5c(N6CC7CC6CN7)nc(OC6CCOCC6)nc45)cc3)nn2)cc1 (stereo not shown)
| cells | host | route | dose | time | tumour volume |
| --- | --- | --- | --- | --- | --- |
| – | mouse, lung LXFA sample B PDX | – | 10 mg/kg twice weekly | day 7 | 159 mm3 and 39 mm3 and 65.8 mm3 and 87.3 mm3 and 187 mm3 and 226 mm3 and 79.3 mm3 and 317 mm3 |
| KP-4 xenograft | mouse | – | 30 mg/kg twice weekly | day 14 | 440 mm3 and 262 mm3 and 250 mm3 and 313 mm3 and 336 mm3 |
| – | mouse, HT-29 xenograft | sc | 30 mg/kg once daily | day 6 | 356 mm3 and 419 mm3 and 357 mm3 and 437 mm3 |
| KP-4 xenograft | mouse | – | 30 mg/kg twice weekly | day 11 | 294 mm3 and 220 mm3 and 248 mm3 and 206 mm3 and 299 mm3 |
| – | mouse, PK-59 xenograft | subcutaneous | 30 mg/kg once daily | day 4 | 142 mm3 and 158 mm3 and 130 mm3 and 134 mm3 |
| ASPC1 xenograft | mouse | – | 30 mg/kg twice weekly | day 4 | 209 mm3 and 206 mm3 and 155 mm3 and 195 mm3 and 135 mm3 |

Sample 5 — cell line: U-87 MG; concentration: concentration not given; baseline: DMSO
Structure (SMILES): CCN1/C(=C/C=C2\CCCC(/C=C/C3=[N+](CC)c4ccccc4C3(C)C)=C2NCCCCCCCCN2CCC(Nc3nc4ccccc4n3Cc3ccc(F)cc3)CC2)C(C)(C)c2ccccc21
| item | log2 fold change |
| --- | --- |
| NDRG1 mRNA | 1.75 |
| NUTM2D mRNA | 1.57 |
| KIF14 mRNA | -2.18 |
| SMOX mRNA | 0.952 |
| SETMAR mRNA | -0.82 |
| UBE2W mRNA | 0.844 |
| TENT5C mRNA | -1.28 |
| POLE mRNA | -1.7 |
| KCTD3 mRNA | -1.08 |
| RNF6 mRNA | 0.942 |
| SPC24 mRNA | -3.22 |
| ECT2 mRNA | -1.38 |
| ATP6V1B2 mRNA | 0.956 |
| RBL1 mRNA | -1.38 |
| NUDT4 mRNA | 0.889 |
| UBASH3B mRNA | -0.825 |

Sample 6
Structure (SMILES): Cc1ccc(O)c(C)c1-c1cnc2[nH]c(-c3cnc(N)nc3)cc2c1C#N
| target | effect on | method | concentration | baseline | remaining binding |
| --- | --- | --- | --- | --- | --- |
| LCK | – | KINOMEscan | 1000 nM | control | 58% |
| CSF1R | – | KINOMEscan | 1000 nM | control | 28% |
| FRK | – | KINOMEscan | 1000 nM | control | 26% |
| WEE1 | – | KINOMEscan | 1000 nM | control | 100% |
| CASK | – | KINOMEscan | 1000 nM | control | 8.1% |
| Serine/threonine-protein kinase B-raf (BRAF, Homo sapiens, UniProt P15056, V600E) | binding | competition with immobilised ligand | 1 µM | – | 4.2% |
| MKNK2 | – | KINOMEscan | 1000 nM | control | 32% |
| PKMYT1 | – | KINOMEscan | 1000 nM | control | 0% |
| PIK4CB | – | KINOMEscan | 1000 nM | control | 4.2% |
| CSNK1A1 | – | KINOMEscan | 1000 nM | control | 31% |
| SRC | – | KINOMEscan | 1000 nM | control | 21% |

Sample 7 — mode: inhibitor; method: FLIPR membrane potential; cells: CHO-BC cells; concentration: 0.003 µM; setting: unit not given; baseline: uninhibited cells
Target: Sodium-dependent neutral amino acid transporter B(0)AT1 (SLC6A19, Homo sapiens, UniProt Q695T7)
UniProt Q695T7, sequence (whole entry, looked up): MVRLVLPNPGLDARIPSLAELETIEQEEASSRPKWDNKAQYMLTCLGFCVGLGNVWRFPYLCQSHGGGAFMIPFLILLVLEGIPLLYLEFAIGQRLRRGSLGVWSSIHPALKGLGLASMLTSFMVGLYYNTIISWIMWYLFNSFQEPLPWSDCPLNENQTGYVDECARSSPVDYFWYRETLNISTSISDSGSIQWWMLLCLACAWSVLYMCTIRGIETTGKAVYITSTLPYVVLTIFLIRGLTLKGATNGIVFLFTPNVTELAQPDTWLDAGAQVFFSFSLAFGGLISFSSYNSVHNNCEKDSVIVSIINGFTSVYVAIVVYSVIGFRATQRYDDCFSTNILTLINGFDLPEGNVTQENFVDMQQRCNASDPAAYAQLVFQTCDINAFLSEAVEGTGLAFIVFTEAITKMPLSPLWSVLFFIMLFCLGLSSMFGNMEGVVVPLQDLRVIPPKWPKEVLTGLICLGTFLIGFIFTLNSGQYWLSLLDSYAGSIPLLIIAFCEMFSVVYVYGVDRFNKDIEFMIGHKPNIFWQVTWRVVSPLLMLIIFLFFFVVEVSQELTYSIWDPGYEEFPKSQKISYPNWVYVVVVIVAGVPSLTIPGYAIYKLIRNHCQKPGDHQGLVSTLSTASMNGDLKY
| Compound | remaining transport activity |
| --- | --- |
| Cc1cc(OCC(=O)NC(C)C)ccc1Cl | 1.09 |
| CCCNC(=O)COc1ccc(I)c(C)c1 | 0.725 |
| Cc1cc(NCC(=O)NC(C)C)ccc1Br | 0.997 |
| CC(C)NC(=O)COc1ccc2ccccc2c1 | 1.06 |
| CCNC(=O)COc1ccc(I)c(C)c1 | 0.879 |

Sample 8 — route: oral
SMILES: CC(C)C[C@@H]1NC(=O)[C@@H](N(C)C(=O)[C@@H](NC(=O)[C@@H]2C[C@@H](F)CN2C(=O)C2(C(F)(F)F)CC(F)(F)C2)C2CC2)CCCCCCCN(C)C(=O)[C@H](Cc2cc(Cl)cnc2OC2CC2)N(C)C1=O
| host | dose | time | tumour volume |
| --- | --- | --- | --- |
| NSG mice, sample B SCLC PDX | 100 mg/kg twice daily | day 22 | 247 mm3 and 238 mm3 and 323 mm3 and 226 mm3 and 230 mm3 |
| NSG mice, sample B SCLC PDX | 100 mg/kg twice daily | day 29 | 254 mm3 and 289 mm3 and 264 mm3 and 232 mm3 and 240 mm3 |
| mouse, sample A SCLC PDX | 100 mg/kg three times daily | day 25 | 468 mm3 and 297 mm3 and 243 mm3 and 346 mm3 and 221 mm3 |

Sample 9 — effect on: thermal unfolding; method: differential scanning fluorimetry; concentration: 5.5 µM; direction: higher = more unfolded
Compound: C[C@@H]1CN(c2ccc(-c3cc(C(=O)NCCOCCOCCOCCOCCOCCOCCNC(=O)/C=C/c4[nH]cc(C(=O)N[C@@H](CC(N)=O)c5ccc(F)c(Cl)c5)c4-c4ccc(Cl)cc4F)ccc3F)cc2NC(=O)c2ccc(F)cc2C(F)(F)F)C[C@H](C)N1C
WDR5: WD repeat-containing protein 5 (WDR5, Homo sapiens, UniProt P61964)
DCAF1: DDB1- and CUL4-associated factor 1 (DCAF1, Homo sapiens, UniProt Q9Y4B6)
UniProt Q9Y4B6, sequence (whole entry, looked up): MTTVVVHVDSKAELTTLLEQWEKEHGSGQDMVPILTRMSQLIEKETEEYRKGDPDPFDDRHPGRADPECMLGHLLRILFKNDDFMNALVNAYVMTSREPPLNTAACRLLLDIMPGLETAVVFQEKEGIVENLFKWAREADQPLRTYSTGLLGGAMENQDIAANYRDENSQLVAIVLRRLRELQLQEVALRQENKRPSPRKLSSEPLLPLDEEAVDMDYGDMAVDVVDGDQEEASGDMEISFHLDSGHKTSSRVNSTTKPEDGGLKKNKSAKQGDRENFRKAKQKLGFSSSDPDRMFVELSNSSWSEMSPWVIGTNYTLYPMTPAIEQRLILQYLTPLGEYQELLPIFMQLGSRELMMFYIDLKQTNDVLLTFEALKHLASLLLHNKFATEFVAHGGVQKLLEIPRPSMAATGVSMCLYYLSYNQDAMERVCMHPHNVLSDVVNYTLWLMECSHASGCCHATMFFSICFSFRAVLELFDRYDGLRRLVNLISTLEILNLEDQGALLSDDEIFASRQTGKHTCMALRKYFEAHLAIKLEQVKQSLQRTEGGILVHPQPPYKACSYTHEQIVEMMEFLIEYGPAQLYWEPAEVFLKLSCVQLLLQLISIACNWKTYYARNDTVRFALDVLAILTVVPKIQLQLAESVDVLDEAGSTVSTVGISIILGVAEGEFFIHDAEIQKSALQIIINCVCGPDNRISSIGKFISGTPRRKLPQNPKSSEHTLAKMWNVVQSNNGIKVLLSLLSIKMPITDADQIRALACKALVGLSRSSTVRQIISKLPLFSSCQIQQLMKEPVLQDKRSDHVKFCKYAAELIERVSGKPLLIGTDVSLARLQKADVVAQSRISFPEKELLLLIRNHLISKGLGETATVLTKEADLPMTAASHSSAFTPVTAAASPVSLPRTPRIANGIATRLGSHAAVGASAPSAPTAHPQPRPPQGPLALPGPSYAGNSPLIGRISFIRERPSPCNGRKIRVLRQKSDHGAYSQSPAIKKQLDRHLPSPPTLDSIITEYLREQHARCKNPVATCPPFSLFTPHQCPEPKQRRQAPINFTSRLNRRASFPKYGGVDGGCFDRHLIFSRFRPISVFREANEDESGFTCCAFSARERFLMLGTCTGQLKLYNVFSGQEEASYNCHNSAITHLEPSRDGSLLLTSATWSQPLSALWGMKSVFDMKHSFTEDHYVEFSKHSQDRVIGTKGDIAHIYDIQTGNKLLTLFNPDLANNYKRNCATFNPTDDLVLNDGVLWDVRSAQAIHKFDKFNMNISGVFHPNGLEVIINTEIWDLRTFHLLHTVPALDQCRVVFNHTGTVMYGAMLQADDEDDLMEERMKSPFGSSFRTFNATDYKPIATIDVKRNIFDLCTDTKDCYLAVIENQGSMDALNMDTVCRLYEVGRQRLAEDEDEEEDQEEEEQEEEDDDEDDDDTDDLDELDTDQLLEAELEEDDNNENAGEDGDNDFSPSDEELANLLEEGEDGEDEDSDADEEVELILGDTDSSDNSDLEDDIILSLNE
| target | temperature | SYPRO Orange fluorescence [a.u.] |
| --- | --- | --- |
| WDR5 | 73.41 °C | 41700 |
| WDR5 | 49.6 °C | 16200 |
| WDR5 | 25.2 °C | 13200 |
| DCAF1 | 56.41 °C | 32000 |
| WDR5 | 39.6 °C | 14100 |
| DCAF1 | 47.6 °C | 16300 |
| DCAF1 | 74.41 °C | 44300 |
| DCAF1 | 93.61 °C | 29700 |
| DCAF1 | 91.61 °C | 31200 |
| DCAF1 | 72.81 °C | 45800 |
| WDR5 | 46.4 °C | 14900 |

Excerpt of the above (sample 2):
| target | effect on | method | baseline | remaining binding [%] |
| --- | --- | --- | --- | --- |
| Phosphorylase b kinase gamma catalytic chain, liver/testis isoform (PHKG2, Homo sapiens, UniProt P15735) | binding | competition with immobilised ligand | – | 86 |
| Ephrin type-A receptor 5 (EPHA5, Homo sapiens, UniProt P54756) | kinase binding | KINOMEscan | DMSO control | 70 |
| Mitogen-activated protein kinase kinase kinase kinase 4 (MAP4K4, Homo sapiens, UniProt O95819) | kinase binding | KINOMEscan | DMSO control | 62 |
| Serine/threonine-protein kinase 32C (STK32C, Homo sapiens, UniProt Q86UX6) | binding | competition with immobilised ligand | – | 97 |
| Serine/threonine-protein kinase pim-3 (PIM3, Homo sapiens, UniProt Q86V86) | binding | competition with immobilised ligand | – | 100 |
| Phosphatidylinositol 3-kinase catalytic subunit type 3 (PIK3C3, Homo sapiens, UniProt Q8NEB9) | kinase binding | KINOMEscan | DMSO control | 56 |
| Serine/threonine-protein kinase Nek4 (NEK4, Homo sapiens, UniProt P51957) | binding | competition with immobilised ligand | – | 62 |
